Measured values of several laboratories.
Each line is one published result; not all experiments were run side by side. ± gives the spread as reported.
Sequence of UniProt Q969G3 (whole entry, looked up): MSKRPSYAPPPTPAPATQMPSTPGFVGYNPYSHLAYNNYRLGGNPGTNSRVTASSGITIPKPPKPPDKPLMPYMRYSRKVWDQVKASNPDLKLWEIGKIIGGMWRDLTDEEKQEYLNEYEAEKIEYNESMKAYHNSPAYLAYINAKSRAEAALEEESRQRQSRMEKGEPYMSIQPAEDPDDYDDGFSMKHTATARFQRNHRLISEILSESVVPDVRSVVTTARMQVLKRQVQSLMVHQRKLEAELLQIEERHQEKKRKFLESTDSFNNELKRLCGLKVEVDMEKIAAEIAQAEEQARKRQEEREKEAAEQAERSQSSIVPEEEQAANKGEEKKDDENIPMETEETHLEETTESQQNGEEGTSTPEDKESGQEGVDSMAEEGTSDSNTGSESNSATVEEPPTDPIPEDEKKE

| SMILES | target or system | assay | test system | setting | scale | quantity | result |
| --- | --- | --- | --- | --- | --- | --- | --- |
| CC(C)C[C@H](NC(=O)C[C@H](O)[C@H](CC(C)C)NC(=O)[C@H](Cc1c[nH]cn1)NC(=O)CNC(=O)[C@@H](NC(=O)[C@H](C)NC(=O)[C@H](Cc1c[nH]c2ccccc12)NC(=O)[C@H](CCC(N)=O)NC(=O)[C@@H](Cc1ccccc1)NC(=O)CCNC(=O)CCSc1nnc(NCCC(=O)NCCC(=O)NCCCC[C@H](NC(=O)N[C@@H](CCC(=O)O)C(=O)O)C(=O)O)c2c1CCC1C(CC2)C1COC(=O)NCCNC(=O)CC[C@H](C(=O)O)N1CCN(CC(=O)O)CCN(CC(=O)O)CC1)C(C)C)C(N)=O (stereo partly drawn) [gallium-68 labelled] | – | – | athymic NMRI nude mouse, colon | intravenous, dose not given, 2 h, together with: bombesin 480 nmol (GRPR blocking) | – | tissue uptake | 0.14 %ID/g |
| CC[C@H](C)[C@@H]([C@@H](CC(=O)N1CCC[C@H]1[C@H](OC)[C@@H](C)C(=O)N[C@H](C)[C@@H](O)c1ccccc1)OC)N(C)C(=O)[C@@H](NC(=O)[C@H](C(C)C)N(C)C(=O)OCc1ccc(NC(=O)[C@H](CCCCN)NC(=O)[C@@H](NC(=O)CCCCCN2C(=O)CC(SC[C@H](NC(=O)[C@H](CC(=O)O)NC(=O)[C@H](CCCNC(=N)N)NC(=O)[C@H](CC(=O)O)NC(=O)CCCCn3cc(CCCC(=O)Nc4nnc(S(N)(=O)=O)s4)nn3)C(=O)O)C2=O)C(C)C)cc1)C(C)C (stereo partly drawn) | – | LC-MS, item: intact conjugate | mouse serum | 100 µg/mL, 37 °C | – | half-life | 492 min |
| CC1(C)C(=CC=C2CCCC(C=CC3=[N+](CCCCS(=O)(=O)[O-])c4ccc(S(=O)(=O)O)cc4C3(C)C)=C2Oc2ccc(S(=O)(=O)O)cc2)N(CCCCCC(=O)NCCCC[C@H](NC(=O)[C@H](CO)NC(=O)CNC(=O)CNC(=O)CNC(=O)[C@H](Cc2ccccc2)NC(=O)[C@H](CCCNC(=N)N)NC(=O)[C@@H]2CCCN2C(=O)[C@H](CC(N)=O)NC(=O)[C@@H]2CCCN2C(=O)[C@H](CO)NC(=O)[C@@H](N)CCCCN)C(N)=O)c2ccc(S(=O)(=O)O)cc21 | – | – | serum | 37 °C | – | half-life | ~282 min |
| N=C(N)NCCC[C@@H]1NC(=O)[C@H](CCCCNC(=O)c2ccc(CNC34CNCCNCC(N)(CNCCNC3)CNCCNC4)cc2)NC(=O)[C@@H](Cc2ccc(O)cc2)NC(=O)[C@H](CC(=O)O)NC(=O)CNC1=O [copper-64 labelled] | – | microPET | male athymic nude mouse, PC-3 tumour, muscle | intravenous, 7.4 MBq, 48 h | – | tissue uptake | 0.14 ± 0.02 %ID/g |
| COc1cc(Nc2ncc(F)c(Nc3ccc4c(n3)NC(=O)C(C)(C)O4)n2)cc(OC)c1OC | Tyrosine-protein phosphatase non-receptor type 11 (PTPN11, Homo sapiens, UniProt Q06124) | – | – | SHP-2 | – | IC50 | > 10 µM |
| CC[C@H](C)[C@H](NC(=O)[C@H](Cc1ccccc1)NC(=O)[C@H](CCC(=O)O)NC(=O)[C@H](CCCNC(=N)N)NC(=O)[C@H](C)NC(=O)[C@H](C)NC(=O)[C@H](CCC(N)=O)NC(=O)[C@H](CCC(=O)O)NC(=O)[C@H](CCC(=O)O)NC(=O)[C@H](CC(C)C)NC(=O)[C@H](Cc1ccc(O)cc1)NC(=O)[C@H](CO)NC(=O)[C@H](CO)NC(=O)[C@@H](NC(=O)[C@H](CC(=O)O)NC(=O)[C@H](CO)NC(=O)[C@@H](NC(=O)[C@H](Cc1ccccc1)NC(=O)[C@@H](NC(=O)CNC(=O)[C@H](CCC(=O)O)NC(=O)[C@H](C)NC(=O)CCc1c[nH]cn1)[C@@H](C)O)[C@@H](C)O)C(C)C)C(=O)N[C@@H](C)C(=O)N[C@@H](Cc1c[nH]c2ccccc12)C(=O)N[C@@H](CC(C)C)C(=O)N[C@H](C(=O)N[C@@H](CCCNC(=N)N)C(=O)NCC(=O)N[C@@H](CCCNC(=N)N)C(=O)N[C@@H](CCCCNC(=O)COCCOCCNC(=O)COCCOCCNC(=O)CC[C@H](NC(=O)CCCCCCCCCCCCCCCCC(=O)O)C(=O)O)C(=O)NCC(=O)NCC(=O)N[C@@H](CO)C(=O)N[C@@H](CCCCNc1c(NCCCCCN(O)C(=O)CCC(=O)NCCCCCN(O)C(=O)CCC(=O)NCCCCCN(O)C(C)=O)c(=O)c1=O)C(=O)O)C(C)C [zirconium-89 labelled] | – | – | rat, liver | iv, 3 nmol/kg, 168 h, ex vivo | – | tissue uptake | 0.69 %ID/g |
| C[C@H]1CN(c2n[nH]c3nc(N[C@H]4CC[C@H](NS(=O)(=O)CCC(F)(F)F)CC4)ncc23)CCO1 | SWI/SNF-related matrix-associated actin-dependent regulator of chromatin subfamily E member 1 (Homo sapiens, UniProt Q969G3) | Kinobeads competition, item: SMARCE1 | – | 20 µM, unit not given | baseline: vehicle | remaining binding | 1.2 |
| Cc1ccccc1NC(=O)Nc1ccc(CC(=O)N[C@@H](CCCCNC(=O)/C=C/c2cccnc2)C(=O)N[C@@H](CCCC(=O)O)C(=O)NC2(C(=O)NCCOCCOCCOCCOCC(=O)N[C@@H](CCCCNC(=S)Nc3ccc(CCCN(CCN4CCN(CC(=O)O)CCN(CC(=O)O)CC4)CP(=O)(O)O)cc3)C(N)=O)CCCCC2)cc1 [gallium-68 labelled] | – | – | human serum | 2 h, 37 °C, 68Ga-labelled | – | dissociation | ~50% |
| CO[C@H]1C[C@@H]2CC[C@@H](C)[C@@](O)(O2)C(=O)C(=O)N2CCCC[C@H]2C(=O)O[C@H]([C@H](C)C[C@@H]2CC[C@@H](OC(=O)NCCOCCOCCOCCOCCOCCOCCOCCOCCC(=O)N3CCc4cc(Cn5nc(-c6ccc7oc(N)nc7c6)c6c(N)ncnc65)ccc4C3)[C@H](OC)C2)C[C@@H](O)[C@H](C)/C=C(\C)[C@@H](O)[C@@H](OC)C(=O)[C@H](C)C[C@H](C)/C=C/C=C/C=C/1C | – | – | patients with advanced solid tumours | intravenous, 12 mg weekly, grade 3 or higher | – | vomiting incidence | 16.7% |
| COc1cc2c(Oc3ccc4[nH]c(C)cc4c3F)ccnc2cc1OCC1(N)CC1 | – | – | paediatric recurrent refractory sarcoma | concentration not given, whole group | – | grade 3 Thrombocytopenia | 0% |
| CCCCCCCCCC(=O)N[C@@H](Cc1c[nH]c2ccccc12)C(=O)N[C@H](CC(N)=O)C(=O)N[C@@H](CC(=O)O)C(=O)N[C@@H]1C(=O)NCC(=O)N[C@@H](CCCNC(=O)CCC(=O)N2Cc3ccccc3-c3c(nnn3CCC[C@H](NC(=O)CCCCC[N+]3=C(C=CC4=CC(=CC=C5N(C)c6ccccc6C5(C)C)CCC4)C(C)(C)c4ccccc43)C(=O)NCCCCNC(=O)CCC(=O)N3Cc4ccccc4-c4c(nnn4CCOCCOCCOCCNC(=O)CN4CCN(CC(=O)NCCNC(=O)c5cccc(O)c5O)CCN(CC(=O)NCCNC(=O)c5cccc(O)c5O)CCN(CC(=O)NCCNC(=O)c5cccc(O)c5O)CC4)-c4ccccc43)-c3ccccc32)C(=O)N[C@@H](CC(=O)O)C(=O)N[C@H](C)C(=O)N[C@@H](CC(=O)O)C(=O)NCC(=O)N[C@H](CO)C(=O)N[C@@H]([C@H](C)CC(=O)O)C(=O)N[C@@H](CC(=O)c2ccccc2N)C(=O)O[C@@H]1C | – | – | human plasma | 1 µM, up to 240 min, pH 7.4, 37 °C | – | half-life | > 240 min |
| C[C@@H](O)[C@@H](CO)NC(=O)[C@@H](CCCNC(=N)N)NC(=O)[C@@H]1CCCN1C(=O)[C@@H]1CSSC[C@H](NC(=O)[C@H](Cc2ccccc2)NC(=O)CN2CCN(CC(=O)O)CCN(CC(=O)O)CCN(CC(=O)O)CC2)C(=O)N[C@@H](Cc2ccc(O)cc2)C(=O)N[C@@H](Cc2ccccc2)C(=O)N[C@@H](CCC(N)=O)C(=O)N[C@@H](CC(N)=O)C(=O)N1 [gallium-68 labelled] | – | – | healthy Wistar rat, bone | intravenous, 8 MBq, 120 min, individual animals | – | tissue uptake | 0.02 %ID/g |

A few entries again:
| SMILES | target or system | assay | test system | setting | scale | quantity | result |
| --- | --- | --- | --- | --- | --- | --- | --- |
| CC1(C)C(=CC=C2CCCC(C=CC3=[N+](CCCCS(=O)(=O)[O-])c4ccc(S(=O)(=O)O)cc4C3(C)C)=C2Oc2ccc(S(=O)(=O)O)cc2)N(CCCCCC(=O)NCCCC[C@H](NC(=O)[C@H](CO)NC(=O)CNC(=O)CNC(=O)CNC(=O)[C@H](Cc2ccccc2)NC(=O)[C@H](CCCNC(=N)N)NC(=O)[C@@H]2CCCN2C(=O)[C@H](CC(N)=O)NC(=O)[C@@H]2CCCN2C(=O)[C@H](CO)NC(=O)[C@@H](N)CCCCN)C(N)=O)c2ccc(S(=O)(=O)O)cc21 | – | – | serum | 37 °C | – | half-life | ~282 min |
